Measured values from different studies.
± gives the spread as reported.

SMILES	target or system	test	test system	conditions	how to read	measurement	value
COc1ccc2[nH]c([S+]([O-])Cc3ncc(C)c(OC)c3C)nc2c1 (stereo not drawn)			human male	oral, 5 mg, 2 h, baseline session		R/S ratio	0.7
O=C(NC[C@H]1CN(c2ccc(N3CCOCC3=O)cc2)C(=O)O1)c1ccc(Cl)s1		Phoenix NLME, model A	human, atrial fibrillation patients, plasma	oral, dose not given		typical volume of distribution	45.5 L
CCC(=O)NS(=O)(=O)c1ccc(-c2c(-c3ccccc3)noc2C)cc1	COS-7			50 µM, 24 h, 0.1% DMSO, unit not given	reference: vehicle control	confluence	0.91 ± 0.04
COc1cc2c(c(OC)c1OC)C(=O)c1c(cc(C)c(O)c1OC)C2=O	HepaRG co-cultured with HK-2	MTT		66.67 µM, 24 h	reference: untreated control	cell viability	72.4 ± 7.89%
O=C(O)CCc1ccc(O)cc1O			human plasma	median		plasma concentration	1280 nM
CCn1cc(C(=O)O)c(=O)c2cnc(N3CCNCC3)nc21		starch gel membrane permeability	Gram-negative envelope surrogate	200 µM, 30 min, pH 7.4		amount permeated	2.06 nmol
C=C1C(=O)O[C@@H]2C[C@@]3(C)CCCC(=C)[C@@H]3C[C@H]12	COS-7			30 µM, 24 h, 0.1% DMSO, unit not given	reference: vehicle control	apoptotic cells	1.53 ± 0.52
O=c1oc2cc(O)ccc2c2ccc(O)cc12			human plasma	mean		plasma concentration	79.1 nM
COc1ncc(-c2nc3c(n2C(C)C)[C@H](c2ccc(Cl)cc2)N(c2cc(Cl)cn(C)c2=O)C3=O)c(OC)n1		LC-MS/MS	human, plasma	oral, 30 mg, cycle 1 day 1, low-dose arm		AUC(0-last)	2690 ng·h/mL
NC[C@H]1O[C@H](O[C@H]2[C@H](O)[C@@H](O[C@H]3O[C@H](CO)[C@@H](O)[C@H](N)[C@H]3O)[C@H](N)C[C@@H]2N)[C@H](N)C[C@@H]1O		starch gel membrane permeability	Gram-negative envelope surrogate	200 µM, 60 min, pH 7.4		amount permeated	1.52 nmol
COc1cc(/C=C/C(=O)O)cc(OC)c1O			human plasma	median		plasma concentration	188 nM
COc1c(O)c(C)cc2c1C(=O)c1c(ccc(O)c1O)C2=O	HepaRG co-cultured with HK-2	MTT		66.67 µM, 24 h	reference: untreated control	cell viability	92 ± 11.1%
O=C1NC(=O)C(c2ccccc2)(c2ccccc2)N1			Sprague-Dawley rat, serum	po, 40 mg/kg, 6 h		AST/ALT ratio	1.91
CCn1ncc2c1-c1cnc(N)c(c1)O[C@H](C)c1cc(F)ccc1-c1nn(C)nc1C2			Balb/c nude mouse, female, PDX, plasma	po, 0.04 mg/kg BID, 12 h, 5 days dosing		Cmin, unbound	0.2 ± 0.03 nM
N#Cc1ccc2c(c1)[C@H]1CCCN(C(=O)c3ccc4[nH]cnc4c3)[C@H]1C2			human	80 mg, end of trial		minimum ACTH level	1.6 pmol/L
COc1cc2c3c(n(CCCN4CCOCC4)c(=O)c2cc1OC)-c1cc2c(cc1C3=O)OCO2			Fischer 344 rat, male, plasma	intravenous bolus, 24 mg/m^2		clearance	51 to 56 L/h/m²
CCO[C@H]1CCN(Cc2c(OC)cc(C)c3[nH]ccc23)[C@H](c2ccc(C(=O)O)cc2)C1			human moderate hepatic impairment, plasma	oral, 200 mg single dose, geometric mean		unbound half-life	19.6 h
C[C@@H](Oc1cc(-c2cnn(C3CCNCC3)c2)cnc1N)c1c(Cl)ccc(F)c1Cl			human patients, plasma	oral, dose not given, cycle 2 day 1, geometric mean, added: avelumab		AUCtau, dose-normalized	11 ng·h/mL/mg
COc1cccc(OC)c1-c1cc(C(=O)NC2(C(=O)O)C3CC4CC(C3)CC2C4)nn1-c1ccc(C(=O)N(C)CCCN(C)CCCN(C)C(=O)CN2CCN(CC(=O)[O-])CCN(CC(=O)[O-])CCN(CC(=O)[O-])CC2)cc1C(C)C.[177Lu+3] (stereo not drawn)			mouse, HT-29 xenograft, heart	4 h post injection		tissue uptake	3.1 %ID/g
CNC(=O)c1ccc(-c2cnc3ncc(Cc4ccc5ncccc5c4)n3n2)cc1F			Japanese patients	oral, 400 mg, any grade		Haematuria dose reduction/interruption	1%
CCc1cc(C(=O)NC)c2nccc(N3CCc4c(cc(Cn5ccnc5)cc4-c4cn(C)nc4C(F)(F)F)C3=O)c2c1			Sprague Dawley rats	oral, 100 mg/kg twice daily, 7 days	reference: vehicle	serum MCH change	1.14%
Cl.[2H]C([2H])([2H])CC(=O)c1cnc(NC(=O)C2CC2)cc1Nc1cccc(-c2ncn(C([2H])([2H])[2H])n2)c1OC		geometric mean	human	oral, 10 mg single dose, fasted, liquid		half-life	9.26 h
N#CCNC(=O)c1ccc(-c2ccnc(Nc3ccc(N4CCOCC4)cc3)n2)cc1			healthy volunteers, plasma	dose not given, added: rifampin multiple-dose	reference: compound alone	median half-life change	decreased
COc1ccc2c(c1)CN(C(=O)CCN1CCC(Cc3ccccc3)CC1)CC[S@@+]2[O-]		telemetry	conscious male beagle dogs	intravenous, 4 mg/kg, 1 h		PQ interval	91 ± 11 ms

Repeated from above:
SMILES	target or system	test	test system	conditions	how to read	measurement	value
CCO[C@H]1CCN(Cc2c(OC)cc(C)c3[nH]ccc23)[C@H](c2ccc(C(=O)O)cc2)C1			human moderate hepatic impairment, plasma	oral, 200 mg single dose, geometric mean		unbound half-life	19.6 h
C[C@@H](Oc1cc(-c2cnn(C3CCNCC3)c2)cnc1N)c1c(Cl)ccc(F)c1Cl			human patients, plasma	oral, dose not given, cycle 2 day 1, geometric mean, added: avelumab		AUCtau, dose-normalized	11 ng·h/mL/mg
COc1cccc(OC)c1-c1cc(C(=O)NC2(C(=O)O)C3CC4CC(C3)CC2C4)nn1-c1ccc(C(=O)N(C)CCCN(C)CCCN(C)C(=O)CN2CCN(CC(=O)[O-])CCN(CC(=O)[O-])CCN(CC(=O)[O-])CC2)cc1C(C)C.[177Lu+3] (stereo not drawn)			mouse, HT-29 xenograft, heart	4 h post injection		tissue uptake	3.1 %ID/g
CNC(=O)c1ccc(-c2cnc3ncc(Cc4ccc5ncccc5c4)n3n2)cc1F			Japanese patients	oral, 400 mg, any grade		Haematuria dose reduction/interruption	1%
